Results pooled from the literature.
A part holds a random share of what one study measured. Substitutions count along the parent as printed.

Study 1 — method: DHFR PCA, deep sequencing; matrix: yeast; added: (+)-ABA 17 µM; baseline: wild-type fitted maximum; direction: higher = stronger binding
Target: ABI1, truncated, D143A, DHFR fusion (Arabidopsis thaliana)
Notes: methotrexate growth selection, single substitutions
Starting sequence: PYL1, truncated, DHFR fusion (Arabidopsis thaliana); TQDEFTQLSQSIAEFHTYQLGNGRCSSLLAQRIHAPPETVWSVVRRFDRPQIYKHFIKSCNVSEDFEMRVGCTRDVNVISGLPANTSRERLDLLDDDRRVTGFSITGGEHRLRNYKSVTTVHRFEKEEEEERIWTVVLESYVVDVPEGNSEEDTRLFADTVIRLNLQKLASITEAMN; partner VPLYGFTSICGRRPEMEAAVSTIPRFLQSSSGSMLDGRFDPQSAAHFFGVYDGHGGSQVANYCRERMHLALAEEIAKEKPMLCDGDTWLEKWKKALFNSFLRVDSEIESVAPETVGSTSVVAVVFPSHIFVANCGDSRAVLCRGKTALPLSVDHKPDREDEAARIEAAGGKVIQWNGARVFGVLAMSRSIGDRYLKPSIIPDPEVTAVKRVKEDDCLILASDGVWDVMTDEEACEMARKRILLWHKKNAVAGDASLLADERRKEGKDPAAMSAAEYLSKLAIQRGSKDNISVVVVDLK
| Substitution | relative binding score [%] |
| --- | --- |
| M68K | 36.6 |
| G102C | 15.4 |
| N77S | 92.7 |
| F5G | 68.5 |
| S117R | 3.27 |
| R163V | 10.9 |
| V62T | 80.2 |
| D144G | 12.3 |
| G108L | 0.41 |

Study 2 — method: RNA Bind-n-Seq; form: RNA; matrix: in vitro; tested at: 365 nM; baseline: no-protein control; direction: higher = stronger binding
Target: RNA binding protein fox-1 homolog 2, RRM domain, GST-SBP tag (RBFOX2, Homo sapiens, UniProt O43251-10, residues 100-194)
Notes: natural RNA segment, single round, ends assumed
All sequences stand within: GGGAGUUCUACAGUCCGACGAUC … UGGAAUUCUCGGGUGCCAA
Target sequence (chain): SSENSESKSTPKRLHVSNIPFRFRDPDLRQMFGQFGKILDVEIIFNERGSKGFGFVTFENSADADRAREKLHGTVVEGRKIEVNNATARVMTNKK
| Sequence | RBNS enrichment (R) |
| --- | --- |
| CUGCAUGGCUCUCUUGUAGCCAAAGGUGGGGAGAUUCUGCGUGGGAGAACUUGGUGUCUCACCCUGGGUACCCAUUCCUGGUGUAUGGAAGCACCUCCUUCACGGUCAGG | 0.617 |
| CAUGGUGCCUGCCCAGAGUCGAGCAGGGUCCCUGGUUAGGAUGACUGAGGAAACCAUGUUCAGAAGAGAAUAAAUGGACCGCCUUCAGGCAAGGGGGGAGCACUGCCUUC | 0.287 |
| GAAGCCAUUUUUCUUUUAGAUGAAAAGCAUUCUGUGUGAUUGUUGUAUAAUAAAUUGAUUUUUACACAAAACAUCUUGCAACUUUUCUUAUUUGGUUCAAAGAAACUAAA | 0.777 |
| GUGUUCUUUGAUUUAUAAUCCUUGUUUGCUCAAUAAAAAGAAAAAAUAAUUUGAUUCAUUUGCCCUCUUUGGUCUGUUUAUGGUUCUUUCUUUUUCUAAAAUUUAUUUAU | 1.3 |
| UGUUGCUGCCAUUUUGCAUUUUUGAAUCAUCUUGUGUAAUUGUCACCAUGAAAGUGUUACUCAGAAUUGUCAUAGAUUUUCUCUUCUUUGUGCAAAAACAUGGAAAAUUG | 10.3 |
| GCCCCAGCCAAAGGCGUGGCUGUCAGGGCUGGGCCCUGUAGUGCUGGACUCUCCCGGGCCACAAUAGGGACAGGGCAGGGACAGGGACAGCCCAGGUCACACGUGGGGUC | 0.581 |

Study 3 — method: RNA Bind-n-Seq; form: RNA; matrix: in vitro; tested at: 200 nM; notes: whole 134-nt RNA, ends assumed; added: 150 mM LiCl; baseline: input library; direction: higher = stronger binding; each molecule: 7-deaza-guanosine replaces G
Target: Fragile X messenger ribonucleoprotein 1, C-terminal low-complexity region (Fmr1, Mus musculus, UniProt P35922)
All sequences stand within: GGGAGUUCUACAGUCCGACGAUC … UGGAAUUCUCGGGUGUCAAGG
| Sequence | log2 enrichment |
| --- | --- |
| AGUCCUGUGCUACACAUCGUAUGUACCGAAUCGGGGAGGGGUUUUUUUGGGGAGGGGAAAGUAUUAUGUUACGCCGUUCGGAUCUGCACU | 0.205 |
| AAGUCCUGUGCUACACAUCGUAUGUACCGAAUCGGGGUUUGGGGUGGGGUUUGGGGAAAGUAUUAUGUUACGCCGUUCGGAUCUGCACUU | -0.992 |
| GUCCUGUGCUACACAUCGUAUGUACCGAAUCGGCCCCCGGCCCCCGGGGCCCCCGGGGAAAGUAUUAUGUUACGCCGUUCGGAUCUGCAC | -1.8 |
| CACAGACAACACGCACCCACACAGACACAGAGGGAAGGGGUUGGGAUGGGGACGGGGUGCACAGCAGGGCGGGGUAGGACCCCAGCCCCU | -0.332 |
| UGUGGCCGCAGGACGAGUACAUCGUGGAGUACUCACUAGAGUAUGGCUUCCUUCGCCUGUCGCAGGCCACCCGCCAGCGCCUGAGCAUCC | 0.59 |
| CUCAAGUCCUGUGCUACACAUCGUAUGUACCGAAUCGGGGAGGGAGGGAGGGGAAAGUAUUAUGUUACGCCGUUCGGAUCUGCACUUCCA | -0.483 |
| UCAAGUCCUGUGCUACACAUCGUAUGUACCGAAUCGGAGGAAAAAGGUUUUUGGAAAGUAUUAUGUUACGCCGUUCGGAUCUGCACUUCC | -0.886 |
| GCAGGAAGUAAAAACAAAUGGAAAUGCUUCGGAUAGUGGCAGGGGUGGGGGAAACUAAGGAAAGGGUGGGAUGGGAGUGGGUAAAGAGUU | 1.29 |

Study 4 — method: universal PBM; form: double-stranded DNA, one strand shown; matrix: in vitro; tested at: 600 nM; direction: higher = stronger binding
Target: Sal-like protein 4, full length isoform A (SALL4, Homo sapiens, UniProt Q9UJQ4, residues 1-1053)
UniProt Q9UJQ4, sequence (whole entry, looked up): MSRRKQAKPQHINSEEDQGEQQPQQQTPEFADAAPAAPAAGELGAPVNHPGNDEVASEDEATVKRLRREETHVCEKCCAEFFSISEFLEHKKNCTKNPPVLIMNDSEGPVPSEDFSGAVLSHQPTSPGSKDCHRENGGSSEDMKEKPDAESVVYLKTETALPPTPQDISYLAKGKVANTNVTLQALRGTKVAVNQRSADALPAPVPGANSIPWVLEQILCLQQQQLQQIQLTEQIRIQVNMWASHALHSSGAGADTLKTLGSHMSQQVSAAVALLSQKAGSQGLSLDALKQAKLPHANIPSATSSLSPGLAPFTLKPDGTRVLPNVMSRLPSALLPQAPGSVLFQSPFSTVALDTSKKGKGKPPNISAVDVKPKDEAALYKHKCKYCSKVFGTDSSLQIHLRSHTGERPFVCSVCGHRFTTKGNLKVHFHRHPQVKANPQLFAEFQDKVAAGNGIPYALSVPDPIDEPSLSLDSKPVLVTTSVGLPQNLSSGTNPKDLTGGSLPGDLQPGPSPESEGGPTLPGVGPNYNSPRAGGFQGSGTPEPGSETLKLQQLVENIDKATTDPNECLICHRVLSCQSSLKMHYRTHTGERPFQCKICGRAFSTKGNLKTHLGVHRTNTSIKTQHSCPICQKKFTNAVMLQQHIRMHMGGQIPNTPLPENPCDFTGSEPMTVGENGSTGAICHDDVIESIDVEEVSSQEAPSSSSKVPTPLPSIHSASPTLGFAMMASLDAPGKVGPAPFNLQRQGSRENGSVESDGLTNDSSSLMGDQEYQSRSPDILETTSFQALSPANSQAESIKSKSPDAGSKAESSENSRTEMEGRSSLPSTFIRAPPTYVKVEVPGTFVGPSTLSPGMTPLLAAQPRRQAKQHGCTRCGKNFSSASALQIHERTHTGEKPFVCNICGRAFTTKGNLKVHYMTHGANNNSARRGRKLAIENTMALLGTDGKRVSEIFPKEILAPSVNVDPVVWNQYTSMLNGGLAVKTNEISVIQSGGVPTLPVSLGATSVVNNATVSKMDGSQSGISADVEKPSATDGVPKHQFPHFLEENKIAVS
Notes: 8-mer, flanks averaged, mean of replicates
| Sequence | E-score |
| --- | --- |
| AATCGCGG | -0.146 |
| ATGTGAGA | 0.219 |
| CTGCATAC | 0.0722 |
| ACCGGCAA | -0.329 |
| GGACGGAC | -0.393 |
| ATTTCGAA | 0.286 |
| AAGGGGCG | -0.246 |
| TACTGTAA | 0.205 |
| ACGGCCCG | -0.189 |
| CGCGAAGC | -0.102 |
| ACCAAATC | -0.0818 |
| ATTCTTCC | 0.112 |
| CTGTTTAA | 0.0792 |
| CGCAGCAC | -0.239 |
| CCTTATTA | 0.33 |
| CGTCTGGC | -0.195 |
| ACTCGTCT | 0.0357 |
| CTGGTCAA | -0.0904 |
| CGCGCAAC | -0.214 |
| TCGAAAGA | 0.153 |
| AATTCTGA | 0.226 |

Study 5 — method: protein binding microarray; form: double-stranded DNA, one strand shown; matrix: in vitro; tested at: not given; baseline: not given; direction: higher = stronger binding
Target: Histone acetyltransferase KAT6A, both winged helices, GST fusion (KAT6A, Homo sapiens, UniProt Q92794, residues 1-181)
Notes: 8-mer, flanks averaged, mean of 2 arrays, mostly near background
Construct (chain): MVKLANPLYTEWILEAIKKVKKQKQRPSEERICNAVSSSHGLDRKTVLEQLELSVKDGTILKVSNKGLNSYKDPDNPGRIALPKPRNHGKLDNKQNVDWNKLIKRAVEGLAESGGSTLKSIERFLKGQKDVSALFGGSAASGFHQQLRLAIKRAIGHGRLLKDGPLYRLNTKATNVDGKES
| Sequence | E-score |
| --- | --- |
| GGAGCATA | -0.0466 |
| CACTAATC | -0.0814 |
| ACACCCCC | -0.124 |
| CGAATCCA | -0.054 |
| TCCCAACA | -0.215 |
| ATATAGAC | 0.0345 |
| GATGCTTA | 0.00878 |
| AAACGTTA | 0.059 |
| GCTAGATA | -0.114 |
| CTTGAAAA | -0.14 |
| CGGCATTA | 0.328 |
| ACGACACA | -0.146 |
| AGTAGGGG | -0.172 |
| CCATTCGC | -0.028 |
| ACACGATA | 0.0296 |
| ACCTCGCC | 0.0887 |

Study 6 — method: protein-binding microarray; form: double-stranded DNA, one strand shown; matrix: in vitro; tested at: 2540 nM top; notes: 60-bp whole probe; added: salmon DNA 0.4 mg/ml; baseline: random background probes; direction: higher = stronger binding; all sequences stand within: GCCTAGCAC … GTCTTGATTCGCTTGACGCTGCTG
Target: Interferon regulatory factor 3, full length, phosphomimetic (IRF3, Homo sapiens, UniProt Q14653, residues 1-427, S386D/S396D/S398D/S402D/T404D/S405D)
UniProt Q14653, sequence (whole entry, unmodified, looked up): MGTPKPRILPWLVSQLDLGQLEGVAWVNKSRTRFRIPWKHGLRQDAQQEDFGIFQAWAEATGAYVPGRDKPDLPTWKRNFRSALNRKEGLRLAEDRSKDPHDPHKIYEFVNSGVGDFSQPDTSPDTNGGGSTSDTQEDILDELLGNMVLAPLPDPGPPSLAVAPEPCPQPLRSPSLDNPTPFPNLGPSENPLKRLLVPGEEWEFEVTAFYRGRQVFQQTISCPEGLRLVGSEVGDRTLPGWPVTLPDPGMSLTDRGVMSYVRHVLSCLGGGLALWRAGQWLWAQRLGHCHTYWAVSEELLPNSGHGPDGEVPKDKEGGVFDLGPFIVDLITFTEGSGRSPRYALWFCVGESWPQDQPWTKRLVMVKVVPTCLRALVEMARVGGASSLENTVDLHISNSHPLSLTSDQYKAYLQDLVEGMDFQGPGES
| Sequence | fitted relative affinity [z-score] |
| --- | --- |
| TCATGATTGAATCTCCCACTGTGCTAG | -0.036 |
| CCTTATTTAAGACCTATGCACGTGCTA | 1.36 |
| TTAGGTATCCTACTGCTTGAGTGCTAG | 2.6 |
| GACGATATCAGTATCGATACGTGCTAG | 2.16 |
| TCAGTTTTTATTTTCTGACTGTGCTAG | 3.52 |
| GACGAGTTCAGACTGGAGACGTGCTAG | -0.134 |
| TTAGATTTCCTACTGCTTTAGTGCTAG | 1.77 |
| CTGGTTTTTACTTTCTGAATGTGCTAG | 2.78 |
| GACGATTCCGGTTTCGAGACGTGCTAG | 4.09 |
| GACGGTTCCCGTTTCCTGACGTGCTAG | 4.06 |
| GACGAACTGGGCACTGGAGACGTGCTA | -0.608 |
| GACGGTATCGACTAGCGGGACGTGCTA | 0.358 |
| GACTATCTCAGACTGGAGACGTGCTAG | 0.411 |

Study 7 — target: CCND2, cyclin fold, Cln2 fusion (human); method: yeast growth competition, sequencing; matrix: yeast; notes: weak parent motif; baseline: not given; direction: higher = stronger binding
Starting sequence: CDC25A docking peptide (human); PPHRRRLLFACSP
| Substitution | normalised enrichment score |
| --- | --- |
| A10D | 0.0595 |
| R5E | -0.0962 |
| L8Y | 0.389 |
| A10P | 0.188 |
| L8I | 0.323 |
| L8T | 0.309 |
| L7N | -0.0305 |
| R5D | -0.0403 |
| L8C | 0.0488 |

Study 8 — method: RNA Bind-n-Seq; form: RNA; matrix: in vitro; tested at: 20 nM; notes: 6-mer, flanks averaged, single round; added: 150 mM LiCl; baseline: input library; direction: higher = stronger binding
Target: TAR DNA-binding protein 43, full length, His tag (TARDBP, Homo sapiens, UniProt Q13148, residues 1-414)
| Sequence | 6-mer enrichment (R) |
| --- | --- |
| UAACGA | 0.802 |
| CCCGAA | 0.935 |
| UCGUGA | 0.926 |
| UACCAU | 0.893 |
| UGCUGC | 1.01 |
| CGCUUU | 0.99 |
| GUCCCA | 0.926 |
| UAAUAC | 0.901 |
| GCUUAA | 0.895 |
| CUAGCU | 0.854 |
| AAACAC | 0.802 |

For quick reference, copied from above (study 8):
| Sequence | 6-mer enrichment (R) |
| --- | --- |
| UCGUGA | 0.926 |
| CCCGAA | 0.935 |
| UACCAU | 0.893 |
| GUCCCA | 0.926 |
| GCUUAA | 0.895 |
| UAAUAC | 0.901 |
| CGCUUU | 0.99 |
| UAACGA | 0.802 |
| CUAGCU | 0.854 |
| UGCUGC | 1.01 |
| AAACAC | 0.802 |
